Experimental data from different studies.
Numbered parts are unrelated; each lists some results of a single study.

Set 1
Target: Ras GTPase-activating protein-binding protein 1, full length (G3BP1, Homo sapiens, UniProt Q13283)
UniProt Q13283, sequence (whole entry, looked up): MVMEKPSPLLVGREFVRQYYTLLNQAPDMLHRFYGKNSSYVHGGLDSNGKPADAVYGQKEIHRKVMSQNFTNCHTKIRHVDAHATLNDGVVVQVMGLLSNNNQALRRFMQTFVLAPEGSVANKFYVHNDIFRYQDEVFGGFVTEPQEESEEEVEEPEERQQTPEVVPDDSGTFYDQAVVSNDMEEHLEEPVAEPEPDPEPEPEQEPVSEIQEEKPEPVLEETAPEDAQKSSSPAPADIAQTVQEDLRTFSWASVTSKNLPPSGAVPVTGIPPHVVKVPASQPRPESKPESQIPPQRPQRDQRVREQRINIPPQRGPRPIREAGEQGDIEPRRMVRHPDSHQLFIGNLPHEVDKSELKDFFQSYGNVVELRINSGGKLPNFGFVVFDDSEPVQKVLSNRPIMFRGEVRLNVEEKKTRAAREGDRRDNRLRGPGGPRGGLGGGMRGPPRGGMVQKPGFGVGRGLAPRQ
Technique: RNA Bind-n-Seq
Form: RNA
Medium: in vitro
Concentration: 200 nM
Setting: whole 134-nt RNA, ends assumed
With: 150 mM LiCl
Baseline: input library
Direction: higher = stronger binding
All molecules: 7-deaza-guanosine replaces G
All sequences stand within: GGGAGUUCUACAGUCCGACGAUC … UGGAAUUCUCGGGUGUCAAGG
Oligonucleotide	log2 enrichment
GUCCUGUGCUACACAUCGUAUGUACCGAAUCGGCCCCCCGGGCCCCCCGGGCCCCCCGGAAAGUAUUAUGUUACGCCGUUCGGAUCUGCA	-0.952
UCAAGUCCUGUGCUACACAUCGUAUGUACCGAAUCGGUUUUUGGUGGUUUUUGGAAAGUAUUAUGUUACGCCGUUCGGAUCUGCACUUCC	-0.0303
UAACUUUAGAGGAGGAUCUGAUGGAUAUGGCAGUGGACGUGGAUUUGGGGAUGGCUAUAAUGUGUAUGGAGGAGGACCUGGAGGUGGCAA	0.484
UGGGAGGUGGAUUUUGUUUAUUUUUUUAGCUCAUUUCCAGGGGUGGGAAUUUUUUUUUAAUAUGUGUCAUGAGUAAAGUUGUUUUUGAAA	0.414
ACCAUGCAGGUGGGCAUCUUUGGGAAGUGGGGCAAGGGGGGGAUAGGGAGGGGGGUAACACUUUGGGAACAGGUGGUCCCAGGUCGCUUC	0.179
ACCCUGCAGGUGGGCAUCUUUGGGAAGUGGGGCAAGGGGGGGAUAGGGAGGGGGGUAACACUUUGGGAACAGGUGGUCCCAGGUCGUUUC	0.203
AGUCCUGUGCUACACAUCGUAUGUACCGAAUCGGGAAAAAGGGAAAGGGAAAAAGGGAAAGUAUUAUGUUACGCCGUUCGGAUCUGCACU	-0.551
CACAGACAACACGCACACACACAGACACAGAGGGAAGGGGUUGGGAUGGGGACAGGGUGCACAGCAGGGCGGGGUAGGACCCCAGCCCCU	-0.235
GCAGGAAGUAAAAACAAAUGGAAAUGCUUCGGAUAGUGGCAGGGGUGGGGUUUGCUAAGGAAAGGGUGGGAUGGGAGUGGGUAAAGAGUU	-0.128
CACAGACAACACGCACCCACACAGACACAGAGGGAAGGGGUUGGGAUGGGGACAGGGUGGACAGCAGGGCGGGGUAGGACCCCAGCCCCU	-1.73
UUGUGGCUGAGAGACAGUUUGCAAAGGAACAACAUACAGAUGGGACACUAAAGGAAGUUGGAGAAGAUUAUCAAAUCGCAAUCCCAGAUU	0.642

Set 2
Target: RNA binding protein fox-1 homolog 2, RRM domain, GST-SBP tag (RBFOX2, Homo sapiens, UniProt O43251-10, residues 100-194)
Technique: RNA Bind-n-Seq
Form: RNA
Medium: in vitro
Concentration: 365 nM
Setting: natural RNA segment, single round, ends assumed
Baseline: no-protein control
Direction: higher = stronger binding
All sequences stand within: GGGAGUUCUACAGUCCGACGAUC … UGGAAUUCUCGGGUGCCAA
Construct (chain): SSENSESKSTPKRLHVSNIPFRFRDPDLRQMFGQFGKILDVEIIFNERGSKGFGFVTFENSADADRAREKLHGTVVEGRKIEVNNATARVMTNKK
Oligonucleotide	RBNS enrichment (R)
AGGGGCUUCCCUACCUCAGGCAGGAAGGGCAGGAAGAAGAGCCUGGAGCCCAGGCGAGGGGGACGGCAAGGGCCUGUCUUUGUGCUCUGCCCCACCUAGCCUGGGCAGCA	0.643
UGCCGAAGGGGACAGACUCCACUGCCAGACGGCCAGCCGUUUGCUGUCCUGCCGCCCGGCUCAGUCGGCCAGACUUCCUCUAGGAGUGGUGCUGCUACCUUGUAUGUUUA	1.84
UAUGUAAGUCAGUUCUUCAGGCUCAUUUGCUGUGCUGGUUUUACUAUUAUUUGUUUUCAAUGUAUAAAGGCAGUAUUUCCCUUUUCAGGUUGCUGAGAAAUGUAAGAGGA	0.609
UUUUGUUUACAAGGAAUCUUGACUGACCAAAAGGCAUUGUAACUCUGCCACAGUACAAGGUACAGAGUAUGGGCAUCUUAGAGGAAAUGUCUGCUUCCGUCCCCUCGUUC	0.61
CCUAUCGUUCUCCUUCCUUCUUGGCAGGCUUCAGGUUUUGCUGCAGCCCCUGGAGCCAACAUUUUGGUUGUGGGAGGCUGACCUCUUGCCUGCCUCCUUGUGUGGACAGA	0.305
GUGAACUCUGUGGAGGGAGGCCCAGAAUGGGUGCUUUCACCAAGAAUUUGUCUGUGUACAACUCUAGAUGGAGUGGGCCAGCAGUAGCUGCCAGUCUUUCUCCCCUGCAG	0.354
UUGUGGAAAAUAUCAGCGUCGCUACCCUCAGAAACAAACUAACAGCACACGUUAGGAGGAGUCCUCAUCAGCUGUUCUCAUUGCCAGUGAGAUAUAUUCAGUAUUGUAGA	0.41
GAUCUGAGUUAUUUUGCUAAACUUGGGGGAGGAGGAACAAAUAAAUGGAGUCUUUAUUGUGUAUCAUCCACUGAAUGUGGCUCAUUUGUAUUGAAAGACAGUGAAACGAG	0.842
UUCAUGAUGACAACUUGAUUUAUGCAUGAAUAUCAACAGUAUUUCCAUAUAGUAAAAUAACAUUUCUGCCCAGGAUAAUAGUCACAGUUUUCCAGGGAGGGAAUGAUAUA	0.796
GCGUUUUCUCUGUCCUGCUGCUUCUUUUGGCCUCCUCGUUUUCCUUCUCUUUUUCGACAAUGGUAGACAUGAAUGAGAUAUUUAAAGUUCAUUGGAAAUCUUCUUCCCUA	0.291
AUGUAGGUGAGCGCCCGCAUUGCAAAGCUGACUCAGGUCCACUGGGCUGAAGGUCCCUUGGAGCCCAGUGUCUAGUCACACCUUUUUGCUCUGGGCCCAUGAGGCCUACU	0.199
UAAGCAAAUCCCACUGCCCUUAAAAUAAGGAAGUUAUGCCUGGUUGUCUGUGAAUGGAACCUCAGUAGGUAAUCCUGAUGAAGCUUAAAACCUUAGGGCAGUGUCUACAU	0.326

Set 3
Target: Max-binding protein MNT, bHLH-zipper, MAX partner unstated (MNT, Homo sapiens, UniProt Q99583, residues 220-300)
Technique: protein-binding microarray
Form: double-stranded DNA, one strand shown
Medium: in vitro
Concentration: not given
Setting: k-mer, scored over probes, only values ≥0.25
Direction: higher = stronger binding
Target sequence (chain): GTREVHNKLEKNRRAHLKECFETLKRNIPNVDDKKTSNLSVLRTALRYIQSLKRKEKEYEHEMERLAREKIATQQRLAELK
Oligonucleotide	E-score
CACGCACC	0.319
GATCATGC	0.285
CAACCCCA	0.308
ATGTCATG	0.272
CGTGGCCA	0.37
TCCATGCA	0.266
ACCATGAG	0.346
ACGTTCAC	0.28
CGTGTTTA	0.346
GAGGCGCA	0.263
CCACATGC	0.454
AGGGCGTG	0.334
CCGTACAC	0.326
AATGTGCG	0.35
CCCCGCCA	0.357
AATCCCCA	0.276
GAGCGTGC	0.366
AGCATGGC	0.396
ACATGATG	0.261
ACCCACGA	0.303
ACAACATG	0.329
CATGGACG	0.279
AACAGCAT	0.261
TGCAGCCA	0.285

Set 4
Target: Sal-like protein 4, full length isoform A (SALL4, Homo sapiens, UniProt Q9UJQ4, residues 1-1053)
UniProt Q9UJQ4, sequence (whole entry, looked up): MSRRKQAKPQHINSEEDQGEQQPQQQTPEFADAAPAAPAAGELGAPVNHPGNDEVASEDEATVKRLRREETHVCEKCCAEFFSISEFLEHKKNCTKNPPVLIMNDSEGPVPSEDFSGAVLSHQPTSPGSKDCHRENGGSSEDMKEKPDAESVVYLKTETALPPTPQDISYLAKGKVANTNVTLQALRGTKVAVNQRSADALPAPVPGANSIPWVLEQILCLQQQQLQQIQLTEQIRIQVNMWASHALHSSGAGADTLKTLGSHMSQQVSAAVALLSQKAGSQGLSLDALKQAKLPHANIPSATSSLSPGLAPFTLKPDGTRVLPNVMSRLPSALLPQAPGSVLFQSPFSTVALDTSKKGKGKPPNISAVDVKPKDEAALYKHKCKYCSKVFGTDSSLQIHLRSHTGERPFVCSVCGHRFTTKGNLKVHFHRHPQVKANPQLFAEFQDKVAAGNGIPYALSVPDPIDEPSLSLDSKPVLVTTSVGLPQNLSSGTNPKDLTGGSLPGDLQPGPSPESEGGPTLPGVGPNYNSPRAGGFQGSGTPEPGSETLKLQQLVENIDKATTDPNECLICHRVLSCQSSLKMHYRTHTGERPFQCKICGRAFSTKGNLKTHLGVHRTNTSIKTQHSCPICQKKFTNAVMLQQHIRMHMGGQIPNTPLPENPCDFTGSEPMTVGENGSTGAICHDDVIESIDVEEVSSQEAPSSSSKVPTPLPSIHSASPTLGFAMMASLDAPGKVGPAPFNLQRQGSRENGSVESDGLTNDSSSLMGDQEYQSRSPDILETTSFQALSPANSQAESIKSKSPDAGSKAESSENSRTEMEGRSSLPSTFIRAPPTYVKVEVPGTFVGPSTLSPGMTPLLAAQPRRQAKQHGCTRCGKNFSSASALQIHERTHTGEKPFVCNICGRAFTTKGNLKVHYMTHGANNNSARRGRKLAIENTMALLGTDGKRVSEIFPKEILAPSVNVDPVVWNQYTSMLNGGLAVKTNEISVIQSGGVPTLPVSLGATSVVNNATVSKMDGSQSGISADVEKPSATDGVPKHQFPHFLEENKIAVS
Technique: universal PBM
Form: double-stranded DNA, one strand shown
Medium: in vitro
Concentration: 600 nM
Setting: 8-mer, flanks averaged, mean of replicates
Direction: higher = stronger binding
Oligonucleotide	E-score
ATCCACAT	0.244
TCTGTACA	0.228
GCGTATCC	-0.259
CTTGAGTA	0.0721
AGAAAGTC	0.0346
AATTATAG	0.377
CATCGGCG	-0.27
ACAATTGG	-0.0749
CCAGGAGC	-0.361
ACTTCGTA	0.0216
GATTTGTA	0.184
GCTGTCCA	-0.0717
GCTTCACC	-0.164
CTTACGTA	0.169
AGAAGACA	0.103
GCCCAATA	0.0784
CTAGGAGC	-0.166
AAGTGGTG	0.0138
ATAGATGG	0.029
ATTTCTGG	0.142
ACGAGTAG	0.0374
AGGCTGCG	-0.203

Set 5
Target: Histone acetyltransferase KAT6A, both winged helices, GST fusion (KAT6A, Homo sapiens, UniProt Q92794, residues 1-181)
Technique: protein binding microarray
Form: double-stranded DNA, one strand shown
Medium: in vitro
Concentration: not given
Setting: 8-mer, flanks averaged, mean of 2 arrays, mostly near background
Baseline: not given
Direction: higher = stronger binding
Target sequence (chain): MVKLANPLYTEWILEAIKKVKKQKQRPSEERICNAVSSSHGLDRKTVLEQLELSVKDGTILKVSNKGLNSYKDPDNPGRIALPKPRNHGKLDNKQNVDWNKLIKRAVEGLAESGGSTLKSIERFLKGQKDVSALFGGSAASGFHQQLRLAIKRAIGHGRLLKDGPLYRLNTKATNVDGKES
Oligonucleotide	E-score
CCTTTTCG	-0.081
AGGACATC	0.037
TAATACCA	-0.0866
AGCGGTAA	0.208
CGACTTCA	0.114
AGAATACC	-0.00492
CTGATGTA	-0.0177
CATACTTC	-0.109
ACAGAATC	-0.104
AGCTCTTG	-0.366
ATGGTCCA	-0.157
GAGTGCCC	-0.135
AGTGAGAG	-0.178
CCGGGAAC	0.257
AGATAACA	-0.143
CTTGACAA	0.0715
AGGTGGCA	-0.224
ATAGCGTC	0.21
AGTTTGAG	-0.0413

For quick reference, copied from above (set 5):
Oligonucleotide	E-score
AGCGGTAA	0.208
ATGGTCCA	-0.157
CATACTTC	-0.109
AGGTGGCA	-0.224
CCGGGAAC	0.257
TAATACCA	-0.0866
ACAGAATC	-0.104
CCTTTTCG	-0.081
AGGACATC	0.037
AGTTTGAG	-0.0413
AGCTCTTG	-0.366
